Assay results collected from several papers.
A part holds a random share of what one study measured.

Block 1
Target: RING finger protein unkempt homolog, zinc fingers 1-6, GST-SBP tag (UNK, Homo sapiens, UniProt Q9C0B0, residues 30-357)
Technique: RNA Bind-n-Seq
Form: RNA
Medium: in vitro
Concentration: not given
Notes: RNA with constant flanks, human-mouse chimeric sites, ends assumed
Reference: input RNA pool
Reading: higher = stronger binding
Shared flanks, not repeated: GGGAGUUCUACAGUCCGACGAUC … CAACAGAGGAUUGAGCAUCA
Residues (chain): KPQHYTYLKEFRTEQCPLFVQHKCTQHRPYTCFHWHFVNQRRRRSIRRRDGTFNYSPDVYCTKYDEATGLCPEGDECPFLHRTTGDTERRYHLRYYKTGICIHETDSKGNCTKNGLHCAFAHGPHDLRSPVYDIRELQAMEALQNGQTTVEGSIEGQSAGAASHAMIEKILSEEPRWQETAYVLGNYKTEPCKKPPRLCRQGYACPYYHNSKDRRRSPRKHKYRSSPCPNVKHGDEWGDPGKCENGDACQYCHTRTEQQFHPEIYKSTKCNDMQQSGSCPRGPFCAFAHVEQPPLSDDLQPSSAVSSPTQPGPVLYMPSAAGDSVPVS
| Sequence | bound/input enrichment [ratio] |
| --- | --- |
| GAUCAUGAACCACCAUCCAGAAAUGAAAUGAGAUUACCCAGACGAGCCAAAACAGCUGCGCUACAGAAAAGUAAACUUAACCUUGCAGAGUUCCUUAAUGAAGAUACUAAGUUAGGAAGC | 0.459 |
| UCCUUGGACCCCAGUCAUAUAGGUGACCUGCAAAAAGCAGACACCAGUAGUCAAGGUGCUUUAGUGUUUCUCUCAAAGGACUACGAAAUAGAAAGUCAAAAUCCUCUGGCCUCUCCUACG | 2.05 |
| ACCUCCCCCUCCCGCCUCACCCCACCCCCGCUUUUUGAAAGUGUGUUGGCGUUUCUUUUCCUUCCCCAGUUAGAAUUAUUACAGUUUCCCCCGCAAGGGUCUAUCGAAGGGCUUGACGGA | 10.4 |
| AAAGAGUGGAUAGAGUGUGCACAUGGAAUCGGUGGGACCCGGGCGAAAAAGGAGUGCAAGAUAGAAUUCGAUGACUUCGAAGAGUGCUUGCUUCGGUACAAAACGAUGAGGCGAAUGCAU | 0.395 |
| UCCCAAAUUAUAAGGCAAGAAGGAGCCAAUUGUUUGUCACUCCACACACAGGGAAGGCGAUAACAUUGUACAUUGGUUUACAUUUUUUCCCCCUGUGGAUUUUUCUAGAGGUCAUAGUGC | 0.616 |
| CGAGACAAGACAUCCAGGAACAUGCGAGGCUCCCGGAUGAAUGGGUUGCCUAGCCCCACUCAUAGUGCCCACUGUAGCUUCUACCGAACCAGAACCUUGCAGGCACUGAGUAAUGAGAAG | 0.0773 |
| AUGGAGAAGGAUUCUCUGCCUCGCUUUGUGCGCUCUGAAUUUUAUAAGGAGCUAAUCAAGUAGUCAUCUGGUCAGGCUUCCAAAAGUUGCCCUGUGAGUUGAGUUACAUCCUUUGUAGCA | 0.141 |
| AAAGCCCAAGUAUUUUGAAAAAACUCGAACAGAUUUAUCAAGGGUAACCAGCUUGGAGUCUAGCAACUUGCCAAUGUGUUUACCAAUCUGGGGGCUUGUUUUUCUUUUCUUCUUUCAAAU | 0.224 |
| GAGUCGAGCAAACUUGAAACAAUUCGUUUUACAAAAACCUCAGUGUUCACUUGCUUGUGGCAAUAGCUGGGGUUUUAUAGGUUCUGGAAGGAGAACUGACGAUGAUGCUGCCGCUGCUGC | 0.293 |
| UGUGCAUAUGAUGCUUGAGAUGGUUUUUGCAAAAGCAGACAUCGCUGCAAGGUAAUCACAAUAGAUAAAAGUGGUAUUUUAAACCUUUGAAAUAAAUGGAUGUAACUGUACGUUGGUACA | 0.849 |
| GCUCCUCCCCGCUCUGCAGCCUGGGGACACUGGGCUGGGACCAGAAUCCAGCUUUCUUUUAAAACUCUCAGUGUAACUUCUUUUUCUGACAUUUCAUUUUUUUUAAAAGAAAAAAACUUU | 0.24 |

Block 2
Target: Histone acetyltransferase KAT6A, winged helix 2, GST fusion (KAT6A, Homo sapiens, UniProt Q92794, residues 85-181)
Technique: protein binding microarray
Form: double-stranded DNA, one strand shown
Medium: in vitro
Concentration: not given
Notes: 8-mer, flanks averaged, mean of 2 arrays, mostly near background
Reference: not given
Reading: higher = stronger binding
Target sequence (chain): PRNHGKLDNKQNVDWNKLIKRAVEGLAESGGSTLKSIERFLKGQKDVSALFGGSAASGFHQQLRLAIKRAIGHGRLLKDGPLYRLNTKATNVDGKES
| Sequence | E-score |
| --- | --- |
| ATGAAGGG | -0.0736 |
| AAAAGAAA | 0.0502 |
| TAGAATGA | -0.0888 |
| GCGCAAAA | 0.0637 |
| CACGAACG | 0.0259 |
| ACAACATG | 0.0543 |
| CTACCATA | -0.199 |
| AGGCATCA | -0.014 |
| ATGCAAGG | -0.164 |
| GCGGGCCA | 0.101 |
| ACGGGTGA | -0.0143 |
| GTAGCCAA | -0.158 |
| GACAGAAC | -0.0384 |
| CCCTGGAG | -0.117 |
| ACTGATAG | -0.0902 |
| GGAAGCAC | 0.0962 |
| AGAGCACA | 0.176 |
| CCTGTAAA | -0.111 |
| CACCGTTA | 0.0425 |
| ACAATTCA | -0.0461 |
| CTTTACCC | 0.00571 |
| ATGCTACC | 0.0599 |
| GCAGCGCA | 0.195 |
| ACGCGATC | -0.00253 |
| ATATCTGC | 0.0583 |

Block 3
Target: RNA binding protein fox-1 homolog 2, RRM domain, GST-SBP tag (RBFOX2, Homo sapiens, UniProt O43251-10, residues 100-194)
Technique: RNA Bind-n-Seq
Form: RNA
Medium: in vitro
Concentration: 365 nM
Notes: natural RNA segment, single round, ends assumed
Reference: no-protein control
Reading: higher = stronger binding
Shared flanks, not repeated: GGGAGUUCUACAGUCCGACGAUC … UGGAAUUCUCGGGUGCCAA
Construct (chain): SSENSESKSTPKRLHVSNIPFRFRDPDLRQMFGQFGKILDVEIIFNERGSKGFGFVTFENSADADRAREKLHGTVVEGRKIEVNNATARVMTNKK
| Sequence | RBNS enrichment (R) |
| --- | --- |
| ACUCGGAAUAAAGGAUGACUUUGGCGGAUGUCGCCCCUGCAAGGAGGUGGCUGAAAGUGGUGUCCAGAUGUCCUUCCGAGGACUCGGCGUAUCCGCCACCAGGGACAUUA | 0.206 |
| GCCCAGCACUUUGUAGUCUCAUCCCAGAUUACUAACCCUUCCUGAUCCUGGAGAGGCAGGGAUAGUAAAUAAAUUGCUCUUCCUACCCCAUCCCCCAUCCCCUGACAAAA | 1.02 |
| GCACCCUGAGCUGGCAGUCCUGGCCGACGCAGUUGACCUCCAGGAGUCCACAGGCAUUGCCUCUGACAGCUCCAGCGACUCUUCUAGCUCCUCUAGUUCCAGCUCGUCAG | 0.5 |
| UGCUUAAAAUGCAGAUUGGCUUUAAAAAGAAAAGAAAACAAACACACAUAUGCAAUGUUUUAAGGUCUGUCUUAAGAAGCUUUGGCCAAAUUGGGAUCCUAACCUAAGAU | 0.27 |
| GGUCCUCCACCCCUCAGCGACACCCACCGCCCGAGAAACUACAGACAAUGGCCACAAGUUUGGCGUCCUUCAAUUUAAUUCUUUAAAGAAGUGCUGGGAAGAAAAAGCUA | 0.465 |
| CACCACGGUCGACGACGGCUGGAGGGACGUUUCAGAGGCGAGUCCUGGGUGGCUCCUCGCCUUGGGGGCUCCUGGCCCUGAGGCUGGCGGUGGCCGCAUGCCGGCGCGUG | 2.82 |
| AUCAGCUCCUUCCUGGAGACUGCCCAGCUAAAGCAAUAUGCAUUUAAAUACAGUCUUCCAUUUGCAAGGGAAAAGUCUCUUGUAAUCCGAAUCUCUUUUUGCUUUCGAAC | 0.42 |
| CUGUCGCACACCCCUUCCUCUCCCAUGCAGUCACCUCAGGACUCCCGACAUACAUCACAAAGGCUGCUUCAUGGCUGGGUGUGGGACCAGAUGCCAGCAAGGAUGGAAGC | 0.556 |
| UGAUGUCCCCUUUCCCUGCCACCUCCAGCCUCUGCCAGCAAUGAGCUGUCCCCCUCCCACCCUACACAGUAGCUGGUCAGGGCUGAGUACAGUCCUGGGGGUAAGGGGAU | 0.273 |
| UUACCUGGCCUGUAAGCUUCUUACUGAUUGAUUGUCUAAGGCUCCUGUCAGAGCCCACCUAGAAGCAGGCUCCUAGUGAUACUUUGUUUCCAAGGCAGAAGUGGCCCAUG | 1.4 |
| AUAAGCAAGAGUCUUUCAUUGUCAGAAUAAGUAUUUUUCACGAUCUGUUUGAAGAGCAUCAUUGCUAACUAGCAUGAAGCAGAGGGCAAUGAUGCCUGUAAAUAUGAAAA | 2.54 |
| UGUCCCAAACUGGCCCACCAAUGAGCAUGGCGGCUCCGGCCAGGAAUGCCAGAGUUAGCCUCCCAGGCUUGCGGGUGGACAUGCCUGCUCCCUGCCAGCCUCCAGUGGCC | 2.91 |

Block 4
Target: Hepatocyte nuclear factor 3-beta, forkhead domain (FOXA2, Homo sapiens, UniProt Q9Y261, residues 142-269)
Technique: protein-binding microarray
Form: double-stranded DNA, one strand shown
Medium: in vitro
Concentration: not given
Notes: k-mer, scored over probes, only values ≥0.25
Reading: higher = stronger binding
Residues (chain): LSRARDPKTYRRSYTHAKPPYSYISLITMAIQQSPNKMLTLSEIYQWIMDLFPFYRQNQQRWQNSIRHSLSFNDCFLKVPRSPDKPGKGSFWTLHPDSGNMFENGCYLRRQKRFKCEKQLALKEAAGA
| Sequence | E-score |
| --- | --- |
| ATATCGAT | 0.277 |
| ATAAAGTG | 0.307 |
| GATATCCA | 0.26 |
| ATGTAATG | 0.342 |
| ATACACTC | 0.26 |
| ATGCTATA | 0.256 |
| ATGCAAAT | 0.258 |
| AAATATAG | 0.29 |
| TAGACATA | 0.353 |
| TGATTAAA | 0.289 |
| ACACATAT | 0.37 |
| ACTTAATA | 0.352 |
| AATATGAA | 0.333 |
| ATTGTAGG | 0.281 |
| AGAACAAA | 0.34 |
| AACATACT | 0.265 |
| GTATTTAA | 0.334 |
| CCTGTTAC | 0.254 |
| AAATTGTT | 0.254 |
| ATCCTATC | 0.276 |
| AGATAATA | 0.281 |
| TACATCAA | 0.251 |
| ATACATTC | 0.317 |
| CATAAGAC | 0.302 |
| ACTGTACA | 0.258 |

For quick reference, copied from above (block 1):
| Sequence | bound/input enrichment [ratio] |
| --- | --- |
| GAUCAUGAACCACCAUCCAGAAAUGAAAUGAGAUUACCCAGACGAGCCAAAACAGCUGCGCUACAGAAAAGUAAACUUAACCUUGCAGAGUUCCUUAAUGAAGAUACUAAGUUAGGAAGC | 0.459 |
| AAAGAGUGGAUAGAGUGUGCACAUGGAAUCGGUGGGACCCGGGCGAAAAAGGAGUGCAAGAUAGAAUUCGAUGACUUCGAAGAGUGCUUGCUUCGGUACAAAACGAUGAGGCGAAUGCAU | 0.395 |
| GAGUCGAGCAAACUUGAAACAAUUCGUUUUACAAAAACCUCAGUGUUCACUUGCUUGUGGCAAUAGCUGGGGUUUUAUAGGUUCUGGAAGGAGAACUGACGAUGAUGCUGCCGCUGCUGC | 0.293 |
| UGUGCAUAUGAUGCUUGAGAUGGUUUUUGCAAAAGCAGACAUCGCUGCAAGGUAAUCACAAUAGAUAAAAGUGGUAUUUUAAACCUUUGAAAUAAAUGGAUGUAACUGUACGUUGGUACA | 0.849 |
